# Assay results of several laboratories.
# Each numbered part is a random draw from the data of one study; scales do not carry over between parts. “And” joins repeats or separate records; there may be more than shown.

# Series 1
# SMILES: O=C(O)C1(O)Oc2cc(F)ccc2N(Cc2ccccc2)C1=O (stereo not shown)
target or system,test system,setting,hypocotyl length
Arabidopsis thaliana,Col-0,"6.25 µg/mL, seed germination, single repetition",1.59 cm and 1.61 cm and 1.62 cm and 1.63 cm
Arabidopsis thaliana,Col-0,"6.25 µg/mL, seed germination, repetition mean",1.63 cm
Arabidopsis thaliana,Col-0,"3.125 µg/mL, seed germination, single repetition",1.82 cm and 1.96 cm and 1.81 cm and 1.98 cm
,Arabidopsis thaliana Col-0 seedlings,"50 µg/mL, added: branched-chain amino acids",1.65 cm and 1.59 cm and 1.63 cm and 1.61 cm and 1.58 cm and 1.62 cm and 1.6 cm
Arabidopsis thaliana,"Col-0, seedlings on half-strength MS medium",50 µg/mL,0.01 cm
Arabidopsis thaliana,Col-0,"25 µg/mL, seed germination, repetition mean",0.98 cm
Arabidopsis thaliana,Col-0,"25 µg/mL, seed germination, single repetition",0.98 cm and 0.95 cm and 1.02 cm and 0.92 cm
Arabidopsis thaliana,Col-0,"50 µg/mL, seed germination, single repetition",0.08 cm and 0.09 cm and 0.1 cm and 0.11 cm
Arabidopsis thaliana,Col-0,"12.5 µg/mL, seed germination, repetition mean",1.33 cm
Arabidopsis thaliana,Col-0,"100 µg/mL, seed germination, repetition mean",0.01 cm
Arabidopsis thaliana,"Col-0, seedlings","50 µg/mL, 1/2 MS medium",0.01 cm
Arabidopsis thaliana,"Col-0, seedlings","50 µg/mL, added: BCAA",1.61 cm

# Series 2
# Matrix: CES1-/- mouse GI tissue homogenate
# Time: 60 min
Structure (SMILES),remaining compound [%]
[2H]C([2H])([2H])OC(=O)[C@H](CCC(=O)C=[N+]=[N-])NC(=O)[C@H](Cc1c[nH]c2ccccc12)NC(C)=O,2
CC(C)OC(=O)[C@H](CCC(=O)C=[N+]=[N-])NC(=O)[C@H](Cc1c[nH]c2ccccc12)NC(=O)CN1CCN(C)CC1,2
CC(=O)N[C@@H](Cc1c[nH]c2ccccc12)C(=O)N[C@@H](CCC(=O)C=[N+]=[N-])C(N)=O,79
COCCOCCOC(=O)[C@H](CCC(=O)C=[N+]=[N-])NC(=O)[C@H](Cc1c[nH]c2ccccc12)NC(C)=O,1

# Series 3
# Structure (SMILES): CCN1/C(=C/C=C2\CCCC(/C=C/C3=[N+](CC)c4ccccc4C3(C)C)=C2NCCCCCCCCN2CCC(Nc3nc4ccccc4n3Cc3ccc(F)cc3)CC2)C(C)(C)c2ccccc21
# Cell line: U-87 MG
# Concentration: concentration not given
# Relative to: DMSO
measured,log2 fold change
E2F2 mRNA,-2.54
FEN1 mRNA,-1.68
SLITRK5 mRNA,-3.02
NAAA mRNA,-0.88
ID1 mRNA,-2.33
ARHGAP44 mRNA,-2.68
TCEA3 mRNA,-1.73
TENT5C mRNA,-1.28
DEPDC1B mRNA,-1.8
ERN1 mRNA,2.38
KIF14 mRNA,-2.18

# Series 4
# Compound: Cc1ncc(-c2cc3c(C(F)(F)F)c(-c4c(C)ccc(O)c4C)cnc3[nH]2)cn1
# Cell line: HCC1569
# Technique: in-cell western
# Measured: CDK1 phospho-Thr14
concentration,pCDK1 (Thr14) level
123.46 nM,16.6 RLU and 29.4 RLU
13.72 nM,12.1 RLU and 10.6 RLU
41.15 nM,20.5 RLU and 11.9 RLU
1111.11 nM,51.9 RLU and 53.6 RLU
3333.33 nM,66.9 RLU and 63.6 RLU
4.57 nM,4.9 RLU and 8.48 RLU
0.0508 nM,8.54 RLU and 9.69 RLU

# A few entries again (series 4):
concentration,pCDK1 (Thr14) level
123.46 nM,16.6 RLU and 29.4 RLU
13.72 nM,12.1 RLU and 10.6 RLU
